Assay results from different studies.
Each numbered part is a random draw from the data of one study; scales do not carry over between parts.
Chain of UniProt P62344 (whole entry, looked up): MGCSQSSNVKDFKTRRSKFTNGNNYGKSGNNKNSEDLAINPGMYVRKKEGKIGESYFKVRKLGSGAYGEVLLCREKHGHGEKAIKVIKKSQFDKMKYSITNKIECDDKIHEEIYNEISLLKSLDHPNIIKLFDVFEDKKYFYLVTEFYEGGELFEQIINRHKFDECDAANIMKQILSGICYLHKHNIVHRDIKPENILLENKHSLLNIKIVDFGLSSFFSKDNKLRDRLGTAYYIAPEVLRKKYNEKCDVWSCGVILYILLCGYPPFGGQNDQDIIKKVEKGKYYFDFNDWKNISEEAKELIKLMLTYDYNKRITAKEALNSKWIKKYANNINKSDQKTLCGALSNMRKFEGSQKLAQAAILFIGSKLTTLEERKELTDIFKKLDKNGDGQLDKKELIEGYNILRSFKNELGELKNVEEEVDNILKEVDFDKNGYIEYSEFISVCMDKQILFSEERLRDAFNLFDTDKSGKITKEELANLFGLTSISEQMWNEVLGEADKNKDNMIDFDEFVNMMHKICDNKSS
Chain of UniProt Q8TD19 (whole entry, looked up): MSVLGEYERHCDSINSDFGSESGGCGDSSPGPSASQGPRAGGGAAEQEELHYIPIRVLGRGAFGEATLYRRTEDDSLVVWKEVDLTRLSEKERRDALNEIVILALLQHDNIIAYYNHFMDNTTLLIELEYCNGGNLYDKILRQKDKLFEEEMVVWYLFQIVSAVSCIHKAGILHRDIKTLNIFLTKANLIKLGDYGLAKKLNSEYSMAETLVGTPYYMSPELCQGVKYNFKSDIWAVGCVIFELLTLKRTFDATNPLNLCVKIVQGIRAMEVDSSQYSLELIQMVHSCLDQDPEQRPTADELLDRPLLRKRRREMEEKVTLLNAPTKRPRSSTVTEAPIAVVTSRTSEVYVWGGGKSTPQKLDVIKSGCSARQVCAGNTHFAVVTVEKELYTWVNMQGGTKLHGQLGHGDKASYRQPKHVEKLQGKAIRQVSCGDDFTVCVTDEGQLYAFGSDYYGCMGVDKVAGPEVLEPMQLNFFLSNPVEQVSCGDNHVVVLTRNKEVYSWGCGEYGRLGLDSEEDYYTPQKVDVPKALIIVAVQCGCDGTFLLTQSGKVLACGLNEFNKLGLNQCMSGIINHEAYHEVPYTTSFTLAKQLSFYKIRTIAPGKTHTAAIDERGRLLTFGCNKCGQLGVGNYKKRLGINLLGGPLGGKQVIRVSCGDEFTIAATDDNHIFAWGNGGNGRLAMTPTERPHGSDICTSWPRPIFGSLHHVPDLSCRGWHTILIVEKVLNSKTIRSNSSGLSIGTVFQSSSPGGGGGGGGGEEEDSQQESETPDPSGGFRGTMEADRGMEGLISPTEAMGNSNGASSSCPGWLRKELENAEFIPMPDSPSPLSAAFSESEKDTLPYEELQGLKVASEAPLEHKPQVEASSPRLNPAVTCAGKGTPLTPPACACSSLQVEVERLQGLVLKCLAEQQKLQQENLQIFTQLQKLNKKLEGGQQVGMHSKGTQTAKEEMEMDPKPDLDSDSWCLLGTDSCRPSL
Chain of UniProt P53779 (whole entry, looked up): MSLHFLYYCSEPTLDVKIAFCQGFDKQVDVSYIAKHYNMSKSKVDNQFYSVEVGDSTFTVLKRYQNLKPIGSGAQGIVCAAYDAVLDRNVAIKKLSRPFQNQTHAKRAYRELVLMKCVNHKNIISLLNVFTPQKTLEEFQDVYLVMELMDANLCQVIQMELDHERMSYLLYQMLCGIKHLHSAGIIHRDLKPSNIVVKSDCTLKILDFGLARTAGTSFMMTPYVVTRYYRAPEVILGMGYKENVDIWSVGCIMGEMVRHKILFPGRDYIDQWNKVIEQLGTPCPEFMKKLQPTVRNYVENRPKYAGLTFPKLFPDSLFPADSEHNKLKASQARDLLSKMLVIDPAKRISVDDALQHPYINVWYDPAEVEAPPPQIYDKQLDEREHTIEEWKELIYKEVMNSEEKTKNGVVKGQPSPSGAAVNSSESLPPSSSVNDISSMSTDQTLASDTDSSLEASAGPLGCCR
Chain of UniProt Q15139 (whole entry, looked up): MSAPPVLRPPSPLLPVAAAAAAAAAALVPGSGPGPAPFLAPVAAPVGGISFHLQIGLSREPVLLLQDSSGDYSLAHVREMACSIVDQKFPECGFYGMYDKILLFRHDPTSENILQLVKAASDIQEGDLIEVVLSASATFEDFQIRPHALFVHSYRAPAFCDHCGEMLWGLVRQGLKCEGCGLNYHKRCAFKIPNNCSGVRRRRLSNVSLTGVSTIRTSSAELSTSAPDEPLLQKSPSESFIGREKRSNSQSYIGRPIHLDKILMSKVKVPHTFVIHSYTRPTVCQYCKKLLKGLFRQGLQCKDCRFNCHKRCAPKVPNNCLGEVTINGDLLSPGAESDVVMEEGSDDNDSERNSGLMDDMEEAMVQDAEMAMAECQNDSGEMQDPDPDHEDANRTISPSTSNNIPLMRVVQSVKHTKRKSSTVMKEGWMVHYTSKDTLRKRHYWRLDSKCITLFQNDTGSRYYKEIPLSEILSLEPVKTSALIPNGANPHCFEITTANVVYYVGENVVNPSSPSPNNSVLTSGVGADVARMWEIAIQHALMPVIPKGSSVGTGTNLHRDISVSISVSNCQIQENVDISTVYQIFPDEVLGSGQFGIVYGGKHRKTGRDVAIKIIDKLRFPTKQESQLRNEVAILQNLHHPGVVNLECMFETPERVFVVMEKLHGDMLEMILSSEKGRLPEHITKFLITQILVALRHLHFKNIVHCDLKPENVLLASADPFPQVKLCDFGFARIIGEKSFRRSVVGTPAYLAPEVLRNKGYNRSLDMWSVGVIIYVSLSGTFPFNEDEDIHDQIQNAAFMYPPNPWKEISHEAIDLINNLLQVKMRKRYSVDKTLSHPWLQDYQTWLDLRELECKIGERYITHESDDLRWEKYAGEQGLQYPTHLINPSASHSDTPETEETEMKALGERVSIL
Chain of UniProt Q16288 (whole entry, looked up): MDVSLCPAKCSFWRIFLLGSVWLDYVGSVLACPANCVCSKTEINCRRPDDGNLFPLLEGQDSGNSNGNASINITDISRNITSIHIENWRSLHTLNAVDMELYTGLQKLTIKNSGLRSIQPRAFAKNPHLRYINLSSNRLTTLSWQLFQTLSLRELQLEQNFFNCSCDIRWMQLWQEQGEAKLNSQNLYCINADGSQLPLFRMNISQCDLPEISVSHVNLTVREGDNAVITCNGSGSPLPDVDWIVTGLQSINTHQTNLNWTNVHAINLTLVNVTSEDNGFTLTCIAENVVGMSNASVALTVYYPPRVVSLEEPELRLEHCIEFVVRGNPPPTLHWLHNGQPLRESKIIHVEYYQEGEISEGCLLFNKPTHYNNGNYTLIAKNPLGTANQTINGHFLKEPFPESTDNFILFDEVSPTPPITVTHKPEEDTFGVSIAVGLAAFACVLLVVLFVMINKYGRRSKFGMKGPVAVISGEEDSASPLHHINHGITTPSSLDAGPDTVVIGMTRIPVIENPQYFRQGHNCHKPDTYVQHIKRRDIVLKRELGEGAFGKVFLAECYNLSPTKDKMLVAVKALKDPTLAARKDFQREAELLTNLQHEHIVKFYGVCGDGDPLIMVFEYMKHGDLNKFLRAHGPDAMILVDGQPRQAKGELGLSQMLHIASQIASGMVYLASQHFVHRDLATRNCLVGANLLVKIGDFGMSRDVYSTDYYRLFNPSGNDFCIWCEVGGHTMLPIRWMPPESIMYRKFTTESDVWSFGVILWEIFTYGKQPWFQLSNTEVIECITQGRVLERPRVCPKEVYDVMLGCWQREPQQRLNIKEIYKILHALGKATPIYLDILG

Study 1
Organism: Sarcocystis neurona
Observed: parasite growth
Tested at: 10 µM
Relative to: untreated
| SMILES | log2 fold change |
| --- | --- |
| CCCCC/C=C\C/C=C\C/C=C\C/C=C\CCCC(=O)Nc1ccc(O)cc1 | -0.07 |
| CN1CC[C@@]23CCCC[C@@H]2[C@@H]1Cc1ccc(O)cc13.O=C(O)C(O)C(O)C(=O)O | 0.31 |
| CCC(COC(=O)c1cc(OC)c(OC)c(OC)c1)(c1ccccc1)N(C)C.O=C(O)/C=C\C(=O)O (centres unmarked) | 0.43 |
| CNC(=O)Oc1ccc2c(c1)[C@]1(C)CCN(C)[C@@H]1N2C.CNC(=O)Oc1ccc2c(c1)[C@]1(C)CCN(C)[C@@H]1N2C.O=S(=O)(O)O | 0.19 |

Study 2
SMILES: COc1ccc2c(c[n+](C)c3c4cc5c(cc4ccc23)OCO5)c1OC
Observed: enzyme activity
Action: inhibitor
Tested at: 0.5 µM
Relative to: control
| target | remaining activity [%] |
| --- | --- |
| MAPK10 (Homo sapiens, UniProt P53779) | 100 |
| NEK9 (Homo sapiens, UniProt Q8TD19) | 97 |
| ROCK2 (Homo sapiens, UniProt O75116) | 92.5 |
| EGFR (Homo sapiens, UniProt P00533) | 99.6 |
| Cyclin-dependent kinase 2, with cyclin A (CDK2, Homo sapiens, UniProt P24941) | 85.1 |
| PRKD1 (Homo sapiens, UniProt Q15139) | 100 |
| NTRK3 (Homo sapiens, UniProt Q16288) | 95.2 |

Single results of other studies
| Structure (SMILES) | target or system | assay | conditions | how to read | measurement | value |
| --- | --- | --- | --- | --- | --- | --- |
| CC(C)CC(=O)N1CCc2nc(-c3ccc(Br)cc3)nc(N(C)Cc3ccccc3)c2C1 | CDPK1 (Plasmodium falciparum, UniProt P62344) | cell-free assay, competition with immobilised ligand | 0.1 µM |  | remaining binding | 100% |
| CC(C)C[C@H](CN)CC(=O)O | A-375 |  | 100 µM, 60 h |  | viability | 101% |
| CN[C@@H]1C[C@H]2O[C@@](C)([C@@H]1OC)n1c3ccccc3c3c4c(c5c6ccccc6n2c5c31)C(=O)NC4 | normal-adjacent organoid sample F | CellTiter-Glo | 1 µM, replicate mean | relative to: DMSO | viability | 0.4% |

Repeated from above (study 2):
| target | remaining activity [%] |
| --- | --- |
| EGFR (Homo sapiens, UniProt P00533) | 99.6 |
